Assay results gathered from unrelated publications.
Every numbered part comes from another study and shows a few of its results, in no order. “And” joins repeats or separate records; there may be more than shown.

Study 1 — cell line: normal-adjacent organoid sample F; method: CellTiter-Glo; concentration: 1 µM; setting: replicate mean; relative to: DMSO
| Compound | viability [%] |
| --- | --- |
| O=C(Nc1cnc(Oc2ccc(F)cc2)nc1)N1CCc2ncccc2[C@@H]1c1ccc(F)cc1 | 108 |
| C[C@H](NC(=O)Nc1cc2[nH]ncc2c(CO)n1)c1ccccn1 | 97.7 |
| Cc1cnc(-c2cc(Cl)ccc2F)cc1-n1c(=O)n(CC(N)=O)c2cnccc21 | 152 |
| CC(=O)C1=C(C)N(c2cccc(C(F)(F)F)c2)C(=O)N[C@@H]1c1ccc(C#N)nc1 | 112 |
| Cc1nc(N2CC[C@@H](O)C2)ncc1-c1cc(C(F)(F)F)cc2[nH]ncc12 | 100 |
| c1ccc(N2CCN(Cc3nc4ccccc4[nH]3)CC2)nc1 | 110 |
| Cn1c(-c2csc(C3CCN(Cc4nc5ncccc5[nH]4)CC3)n2)nc2ccccc21 | 127 |
| c1ccc2oc(-c3csc(C4CCN(Cc5nc6ncccc6[nH]5)CC4)n3)cc2c1 | 41 |
| CN(C)C(=O)Cn1cc(-c2nc(C3(c4ccc(-c5cnc(N)nc5)cc4)CC3)no2)cn1 | 106 |
| O=C(O)[C@@H]1[C@@H](Cn2nnc3ccccc3c2=O)CC[C@H]1C(=O)c1ccc(OCCC2CCOCC2)cc1 | 103 |
| CC(=O)c1c(NS(C)(=O)=O)c2cc(-c3ccc(Cl)cc3)c(-c3ccc(Cl)cc3Cl)nc2n(C)c1=O | 111 |
| O=C(Nc1cccnn1)N1CCC(=Cc2cccc(Oc3ccc(C(F)(F)F)cn3)c2)CC1 | 102 |
| CNCc1ccccc1-c1csc([C@@H](C)Nc2nc(C)nc3cc(OC)c(OC)cc23)c1 | 89.3 |
| CN1CCN(C(=O)C(C)(C)c2ccc(C(=O)Nc3cn4cc(-c5ccncc5)ccc4n3)cc2)CC1 | 73.1 |

Study 2 — observed: enzyme activity; action: inhibitor; concentration: 0.5 µM; relative to: control
Target: Tyrosine-protein kinase ITK/TSK (ITK, Homo sapiens, UniProt Q08881)
Chain of UniProt Q08881 (whole entry, looked up): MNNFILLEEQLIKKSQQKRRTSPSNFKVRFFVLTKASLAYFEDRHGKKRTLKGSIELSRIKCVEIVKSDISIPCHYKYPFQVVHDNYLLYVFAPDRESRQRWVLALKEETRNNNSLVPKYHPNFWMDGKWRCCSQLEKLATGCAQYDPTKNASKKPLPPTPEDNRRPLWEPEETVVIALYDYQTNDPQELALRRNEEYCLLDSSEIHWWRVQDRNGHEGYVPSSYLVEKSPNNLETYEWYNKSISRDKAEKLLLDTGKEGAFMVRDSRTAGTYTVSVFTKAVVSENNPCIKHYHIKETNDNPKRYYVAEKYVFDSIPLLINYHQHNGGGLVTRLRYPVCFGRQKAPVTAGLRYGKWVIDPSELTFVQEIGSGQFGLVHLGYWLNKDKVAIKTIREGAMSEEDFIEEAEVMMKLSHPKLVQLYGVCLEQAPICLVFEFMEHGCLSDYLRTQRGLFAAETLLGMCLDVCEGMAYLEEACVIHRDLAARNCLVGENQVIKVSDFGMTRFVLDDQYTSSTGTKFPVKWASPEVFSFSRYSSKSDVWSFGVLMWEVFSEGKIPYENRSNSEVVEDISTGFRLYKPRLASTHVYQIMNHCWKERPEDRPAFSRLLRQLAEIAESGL
| SMILES | remaining activity |
| --- | --- |
| O=c1c(-c2ccc(F)cc2)c(-c2ccncc2)[nH]n1-c1ccc(Cl)cc1 | 79.7% |
| Clc1ccc(Nc2nnc(Cc3ccncc3)c3ccccc23)cc1 | 103% |
| CC(C)(C)c1nc2c3cc[nH]c(=O)c3c3cc(F)ccc3c2[nH]1 | 86% |
| CC(C)N(CCC(=O)c1ccc2ccccc2c1)Cc1ccccc1 | 89.9% |
| O=C(c1ccccc1)c1ccc(N2CCOCC2)cc1O | 99.5% |
| CCCCc1c(-c2ccc(O)cc2)[nH]c2nccnc12 | 104% |
| Nc1nc(Nc2ccc(S(N)(=O)=O)cc2)nn1C(=S)Nc1c(F)cccc1F | 61% |
| O=Nc1c(-c2c(O)[nH]c3ccccc23)[nH]c2ccccc12 | 53% |

Study 3 — cell line: Huh-7; concentration: 10 µM; time: 24 h
| SMILES | viability [%] |
| --- | --- |
| O=C1NC(=O)C(c2ccccc2)(c2ccccc2)N1 | 96.9 |
| Cc1ncc([N+](=O)[O-])n1CCO | 104 |
| CC(=O)OCC(=O)[C@@]1(O)[C@H](OC(C)=O)C[C@H]2[C@@H]3CCC4=CC(=O)C=C[C@]4(C)[C@@]3(F)[C@@H](O)C[C@@]21C | 99.3 |
| COc1ccc2cc([C@H](C)CO)ccc2c1 | 94.9 |
| O[C@H]1[C@H](O)[C@@H](O)[C@H](O)[C@@H](O)[C@H]1O | 104 |

Single results of other studies
| Structure (SMILES) | test | test system | setting | scale | quantity | value |
| --- | --- | --- | --- | --- | --- | --- |
| CC(=O)N[C@@H](Cc1c[nH]c2ccccc12)C(=O)N[C@@H](CCC(=O)C=[N+]=[N-])C(=O)OC(C)C | UPLC-MS/MS | EL4 tumor, C57BL/6 CES1-/- mice, tumor | subcutaneous, 0.3 mg/kg DON equivalent daily, 5 days | higher = more metabolite | pyridoxal level | 9.72e+06 a.u. and 1.12e+07 a.u. and 5.7e+06 a.u. and 8.36e+06 a.u. and 6.74e+06 a.u. and 7.29e+06 a.u. |

Excerpt of the above (study 1):
| Compound | viability [%] |
| --- | --- |
| CN(C)C(=O)Cn1cc(-c2nc(C3(c4ccc(-c5cnc(N)nc5)cc4)CC3)no2)cn1 | 106 |
| O=C(O)[C@@H]1[C@@H](Cn2nnc3ccccc3c2=O)CC[C@H]1C(=O)c1ccc(OCCC2CCOCC2)cc1 | 103 |
